Assay results pooled from the literature.
Each numbered part is a random draw from the data of one study; scales do not carry over between parts.
Chain of UniProt Q96PN8 (whole entry, looked up): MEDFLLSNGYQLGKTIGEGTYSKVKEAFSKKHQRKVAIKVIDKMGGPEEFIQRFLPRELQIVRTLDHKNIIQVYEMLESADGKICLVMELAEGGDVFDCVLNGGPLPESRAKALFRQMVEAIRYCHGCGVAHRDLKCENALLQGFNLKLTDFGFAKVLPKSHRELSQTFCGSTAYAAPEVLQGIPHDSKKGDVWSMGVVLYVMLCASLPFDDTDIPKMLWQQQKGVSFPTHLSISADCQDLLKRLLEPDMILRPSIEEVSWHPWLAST
Chain of UniProt Q9UL54 (whole entry, looked up): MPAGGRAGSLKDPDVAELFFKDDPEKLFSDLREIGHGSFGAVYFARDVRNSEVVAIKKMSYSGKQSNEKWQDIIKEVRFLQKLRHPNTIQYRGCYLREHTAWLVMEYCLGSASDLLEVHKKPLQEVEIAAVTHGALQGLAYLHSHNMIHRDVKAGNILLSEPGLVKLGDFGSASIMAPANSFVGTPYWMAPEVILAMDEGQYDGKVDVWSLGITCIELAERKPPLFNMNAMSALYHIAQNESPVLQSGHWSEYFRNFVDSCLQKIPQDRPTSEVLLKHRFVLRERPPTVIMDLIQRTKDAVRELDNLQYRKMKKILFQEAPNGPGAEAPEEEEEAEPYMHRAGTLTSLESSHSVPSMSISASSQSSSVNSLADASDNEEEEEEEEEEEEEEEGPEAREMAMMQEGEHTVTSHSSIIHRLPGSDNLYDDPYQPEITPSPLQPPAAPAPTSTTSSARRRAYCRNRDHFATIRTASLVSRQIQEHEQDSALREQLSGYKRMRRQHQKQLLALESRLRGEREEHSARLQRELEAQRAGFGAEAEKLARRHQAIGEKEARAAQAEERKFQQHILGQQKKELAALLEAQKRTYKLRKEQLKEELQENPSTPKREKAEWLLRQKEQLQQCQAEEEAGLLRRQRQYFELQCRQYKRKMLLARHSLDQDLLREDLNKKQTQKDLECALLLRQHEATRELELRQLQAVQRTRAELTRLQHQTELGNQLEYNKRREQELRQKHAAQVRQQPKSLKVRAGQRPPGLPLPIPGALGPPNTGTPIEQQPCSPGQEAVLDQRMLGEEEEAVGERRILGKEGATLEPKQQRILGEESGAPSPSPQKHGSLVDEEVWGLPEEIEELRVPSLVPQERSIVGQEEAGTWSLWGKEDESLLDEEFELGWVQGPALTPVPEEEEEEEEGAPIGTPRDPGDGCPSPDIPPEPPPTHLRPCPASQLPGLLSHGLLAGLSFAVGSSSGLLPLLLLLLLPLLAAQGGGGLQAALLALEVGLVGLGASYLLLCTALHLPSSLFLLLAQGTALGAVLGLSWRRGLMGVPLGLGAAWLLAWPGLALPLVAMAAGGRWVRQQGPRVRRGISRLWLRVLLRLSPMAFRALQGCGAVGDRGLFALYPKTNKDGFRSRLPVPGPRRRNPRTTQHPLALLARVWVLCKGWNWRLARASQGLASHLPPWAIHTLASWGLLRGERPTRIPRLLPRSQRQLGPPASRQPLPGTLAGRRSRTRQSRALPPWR
Chain of UniProt Q9H4B4 (whole entry, looked up): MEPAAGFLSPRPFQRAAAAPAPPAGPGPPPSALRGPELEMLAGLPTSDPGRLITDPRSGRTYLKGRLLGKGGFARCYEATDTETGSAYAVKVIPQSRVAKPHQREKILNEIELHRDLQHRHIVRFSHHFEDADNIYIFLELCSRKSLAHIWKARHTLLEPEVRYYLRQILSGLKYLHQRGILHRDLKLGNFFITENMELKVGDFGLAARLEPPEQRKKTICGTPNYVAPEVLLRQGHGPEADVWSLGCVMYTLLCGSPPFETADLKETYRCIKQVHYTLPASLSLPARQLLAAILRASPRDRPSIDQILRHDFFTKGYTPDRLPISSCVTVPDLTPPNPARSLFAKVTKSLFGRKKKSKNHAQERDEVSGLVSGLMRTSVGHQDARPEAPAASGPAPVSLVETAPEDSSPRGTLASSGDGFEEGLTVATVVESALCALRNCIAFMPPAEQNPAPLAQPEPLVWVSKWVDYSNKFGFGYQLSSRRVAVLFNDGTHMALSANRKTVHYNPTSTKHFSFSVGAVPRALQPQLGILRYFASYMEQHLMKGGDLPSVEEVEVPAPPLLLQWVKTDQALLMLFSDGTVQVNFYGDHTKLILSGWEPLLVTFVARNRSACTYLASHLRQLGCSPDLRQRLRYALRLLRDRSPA
Chain of UniProt O60674 (whole entry, looked up): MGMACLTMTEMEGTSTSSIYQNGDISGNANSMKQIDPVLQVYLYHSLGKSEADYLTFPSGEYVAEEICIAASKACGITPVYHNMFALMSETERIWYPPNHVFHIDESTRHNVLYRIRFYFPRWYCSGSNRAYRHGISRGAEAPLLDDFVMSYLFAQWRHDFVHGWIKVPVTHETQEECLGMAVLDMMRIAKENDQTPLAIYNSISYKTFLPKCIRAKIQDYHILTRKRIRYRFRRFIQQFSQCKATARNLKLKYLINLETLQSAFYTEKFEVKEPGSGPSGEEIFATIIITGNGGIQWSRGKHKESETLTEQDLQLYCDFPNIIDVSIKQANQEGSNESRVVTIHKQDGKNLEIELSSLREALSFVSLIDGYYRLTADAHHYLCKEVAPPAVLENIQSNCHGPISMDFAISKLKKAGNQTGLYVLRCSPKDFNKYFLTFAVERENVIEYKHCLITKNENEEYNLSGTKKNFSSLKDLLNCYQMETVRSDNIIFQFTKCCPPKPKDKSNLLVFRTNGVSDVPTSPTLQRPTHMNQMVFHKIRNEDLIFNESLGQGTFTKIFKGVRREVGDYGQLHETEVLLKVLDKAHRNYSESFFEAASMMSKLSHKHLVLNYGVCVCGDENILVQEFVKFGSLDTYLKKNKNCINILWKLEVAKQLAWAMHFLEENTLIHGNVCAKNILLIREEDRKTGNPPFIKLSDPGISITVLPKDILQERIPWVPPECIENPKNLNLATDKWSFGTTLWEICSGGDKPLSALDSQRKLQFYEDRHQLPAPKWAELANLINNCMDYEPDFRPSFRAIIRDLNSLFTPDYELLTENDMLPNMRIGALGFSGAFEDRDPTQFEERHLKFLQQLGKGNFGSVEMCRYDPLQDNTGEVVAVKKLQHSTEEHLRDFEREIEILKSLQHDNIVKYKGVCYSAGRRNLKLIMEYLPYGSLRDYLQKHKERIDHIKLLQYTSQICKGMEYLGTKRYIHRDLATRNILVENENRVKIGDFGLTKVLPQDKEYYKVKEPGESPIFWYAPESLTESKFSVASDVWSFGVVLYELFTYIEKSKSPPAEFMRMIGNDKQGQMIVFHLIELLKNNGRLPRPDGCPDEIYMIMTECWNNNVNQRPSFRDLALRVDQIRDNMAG
Chain of UniProt P10398 (whole entry, looked up): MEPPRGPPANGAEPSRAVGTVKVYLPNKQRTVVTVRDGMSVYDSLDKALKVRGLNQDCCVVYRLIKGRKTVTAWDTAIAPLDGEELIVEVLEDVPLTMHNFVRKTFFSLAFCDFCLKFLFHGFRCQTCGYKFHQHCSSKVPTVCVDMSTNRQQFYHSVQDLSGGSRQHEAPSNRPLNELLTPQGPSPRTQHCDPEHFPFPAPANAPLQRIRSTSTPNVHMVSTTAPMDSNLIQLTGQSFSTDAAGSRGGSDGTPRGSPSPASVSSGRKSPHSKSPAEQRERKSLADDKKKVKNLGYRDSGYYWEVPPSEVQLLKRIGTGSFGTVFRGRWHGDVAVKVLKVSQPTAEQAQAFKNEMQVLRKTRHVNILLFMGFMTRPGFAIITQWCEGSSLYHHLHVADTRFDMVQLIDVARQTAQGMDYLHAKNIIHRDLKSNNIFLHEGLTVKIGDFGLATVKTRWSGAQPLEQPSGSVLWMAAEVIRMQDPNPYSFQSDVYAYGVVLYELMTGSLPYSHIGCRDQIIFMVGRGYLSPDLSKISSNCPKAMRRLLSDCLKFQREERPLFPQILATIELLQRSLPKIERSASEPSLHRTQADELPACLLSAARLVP
Chain of UniProt Q9P1W9 (whole entry, looked up): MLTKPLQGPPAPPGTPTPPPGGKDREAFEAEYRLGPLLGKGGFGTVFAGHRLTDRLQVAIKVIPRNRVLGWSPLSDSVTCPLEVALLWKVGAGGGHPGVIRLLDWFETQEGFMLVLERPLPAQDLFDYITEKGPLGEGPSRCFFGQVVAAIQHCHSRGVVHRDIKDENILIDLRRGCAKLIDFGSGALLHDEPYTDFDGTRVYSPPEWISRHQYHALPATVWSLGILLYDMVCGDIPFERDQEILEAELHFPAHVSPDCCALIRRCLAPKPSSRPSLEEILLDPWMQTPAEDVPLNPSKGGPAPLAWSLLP
Chain of UniProt P11802 (whole entry, looked up): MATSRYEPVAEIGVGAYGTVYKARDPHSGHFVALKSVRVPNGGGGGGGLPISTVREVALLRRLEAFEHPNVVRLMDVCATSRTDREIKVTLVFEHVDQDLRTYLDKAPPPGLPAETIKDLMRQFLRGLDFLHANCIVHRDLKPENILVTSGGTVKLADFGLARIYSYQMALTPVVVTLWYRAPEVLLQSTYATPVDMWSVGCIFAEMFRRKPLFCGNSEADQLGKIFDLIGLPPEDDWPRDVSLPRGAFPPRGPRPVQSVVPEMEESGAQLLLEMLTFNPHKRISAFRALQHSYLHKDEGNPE

Sample 1 — technique: competition with immobilised ligand; tested at: 1 µM; endpoint: remaining binding
SMILES: Cc1c(C(=O)O)cc(-c2ccc(C3CCNCC3)cc2)c2ccc(-c3ccc(C(F)(F)F)cc3)cc12
PLK3 (Homo sapiens, UniProt Q9H4B4); binding: 100%
MST1R (Homo sapiens, UniProt Q04912); cell-free assay: 100%
NEK3 (Homo sapiens, UniProt P51956); binding: 85%
PRKCH (Homo sapiens, UniProt P24723); cell-free assay: 100%
Tyrosine-protein kinase JAK2, JH1 (JAK2, Homo sapiens, UniProt O60674); binding: 100%
TIE1 (Homo sapiens, UniProt P35590); cell-free assay: 100%
eIF-2-alpha kinase GCN2, C-terminal kinase domain (EIF2AK4, Homo sapiens, UniProt Q9P2K8, S808G); binding: 100%
BTK (Homo sapiens, UniProt Q06187); cell-free assay: 94%
MAPK4 (Homo sapiens, UniProt P31152); binding: 100%
Ribosomal protein S6 kinase alpha-5, N-terminal kinase domain (RPS6KA5, Homo sapiens, UniProt O75582); binding: 100%
FLT3 (Homo sapiens, UniProt P36888, D835V/ITD); binding: 95%
CDK4 (Homo sapiens, UniProt P11802); binding: 100%
CASK (Homo sapiens, UniProt O14936); cell-free assay: 100%
RET (Homo sapiens, UniProt P07949, V804L); cell-free assay: 100%
FLT3 (Homo sapiens, UniProt P36888, ITD); binding: 81%
TSSK3 (Homo sapiens, UniProt Q96PN8); binding: 93%
RIPK2 (Homo sapiens, UniProt O43353); binding: 100%
PIM2 (Homo sapiens, UniProt Q9P1W9); binding: 100%

Sample 2 — sample: 1,9-decadiene/PBS; pH: 7.4; endpoint: logD
CC(C)C[C@@H]1NC(=O)[C@H](C)NC(=O)[C@H](CC(C)C)NC(=O)[C@@H](CC(C)C)NC(=O)[C@H](CC(C)C)NC(=O)[C@@H](C)NC(=O)[C@H](CCC(=O)N2CCCC2)NC1=O: -2
CC(C)C[C@@H]1NC(=O)[C@H](CC(C)C)NC(=O)[C@@H](CC(C)C)NC(=O)[C@H](C(C)C)NC(=O)[C@@H](Cc2cscn2)NC(=O)[C@H](C)NC(=O)[C@H](CCC(=O)N2CCCC2)NC1=O: -2.2
CC(C)C[C@@H]1NC(=O)[C@H](CC(C)C)NC(=O)[C@@H](CC(C)C)NC(=O)[C@H](C(C)C)NC(=O)[C@@H](Cc2cscn2)NC(=O)[C@@H](CC(C)C)NC(=O)[C@H](C)NC1=O: -0.344
CC(C)C[C@@H]1NC(=O)[C@H](C)NC(=O)[C@@H](CC(C)C)NC(=O)[C@@H](CCC(=O)N2CCCC2)NC(=O)[C@H](CC(C)C)NC(=O)[C@@H](CC(C)C)NC(=O)[C@H](CC(C)C)NC1=O: -0.148
CC(C)C[C@@H]1NC(=O)[C@H](C)NC(=O)[C@H](C(C)C)NC(=O)[C@H](C)NC(=O)[C@H](C)NC(=O)[C@H](CC(C)C)NC(=O)[C@H](CC(C)C)NC1=O: -2.11
CC(C)C[C@@H]1NC(=O)[C@H](Cc2cscn2)NC(=O)[C@@H](CC(C)C)NC(=O)[C@H](CC(C)C)NC(=O)[C@@H](Cc2cscn2)NC(=O)[C@H](CC(C)C)NC(=O)[C@@H](CC(C)C)NC1=O: -0.31
CC(C)C[C@@H]1NC(=O)[C@H](CC(C)C)NC(=O)[C@@H](C(C)C)NC(=O)[C@H](CC(C)C)NC(=O)[C@@H](Cc2cscn2)NC(=O)[C@H](Cc2cscn2)NC(=O)[C@H](CCC(=O)N2CCCC2)NC1=O: -1.64
CC(C)C[C@@H]1NC(=O)[C@H](C)NC(=O)[C@H](CC(C)C)NC(=O)[C@@H](CC(C)C)NC(=O)[C@H](CC(C)C)NC(=O)[C@H](C(C)C)NC(=O)[C@H](CCC(=O)N2CCCC2)NC1=O: -0.955
CC(C)C[C@@H]1NC(=O)[C@H](C)NC(=O)[C@@H](CC(C)C)NC(=O)[C@@H](CC(C)C)NC(=O)[C@@H](Cc2cscn2)NC(=O)[C@H](CC(C)C)NC(=O)[C@@H](CC(C)C)NC1=O: 0.106
CC(C)C[C@@H]1NC(=O)[C@H](C)NC(=O)[C@H](CCC(=O)N2CCCC2)NC(=O)[C@H](CC(C)C)NC(=O)[C@H](C(C)C)NC(=O)[C@H](CC(C)C)NC(=O)[C@@H](CC(C)C)NC1=O: -0.934

Sample 3 — observed: kinase activity; action: inhibitor; tested at: 1 µM; endpoint: remaining activity
Structure (SMILES): CC(C)S(=O)(=O)c1ccc2nccc(Nc3ccc4sc(C5CCCC5)nc4c3)c2c1.Cl
ARAF (Homo sapiens, UniProt P10398): 106%
TAOK2 (Homo sapiens, UniProt Q9UL54): 95%
FLT4 (Homo sapiens, UniProt P35916): 81%
TSSK3 (Homo sapiens, UniProt Q96PN8): 103%
CAMKK2 (Homo sapiens, UniProt Q96RR4): 95%
MAPK11 (Homo sapiens, UniProt Q15759): 109%
PHKG2 (Homo sapiens, UniProt P15735): 91%
EGFR (Homo sapiens, UniProt P00533): 92%
PTK2B (Homo sapiens, UniProt Q14289): 107%

Sample 4 — observed: enzyme activity; action: inhibitor; tested at: 10 µM; endpoint: inhibition
Target: Calcium/calmodulin-dependent protein kinase type II subunit alpha (CAMK2A, Homo sapiens, UniProt Q9UQM7)
Chain of UniProt Q9UQM7 (whole entry, looked up): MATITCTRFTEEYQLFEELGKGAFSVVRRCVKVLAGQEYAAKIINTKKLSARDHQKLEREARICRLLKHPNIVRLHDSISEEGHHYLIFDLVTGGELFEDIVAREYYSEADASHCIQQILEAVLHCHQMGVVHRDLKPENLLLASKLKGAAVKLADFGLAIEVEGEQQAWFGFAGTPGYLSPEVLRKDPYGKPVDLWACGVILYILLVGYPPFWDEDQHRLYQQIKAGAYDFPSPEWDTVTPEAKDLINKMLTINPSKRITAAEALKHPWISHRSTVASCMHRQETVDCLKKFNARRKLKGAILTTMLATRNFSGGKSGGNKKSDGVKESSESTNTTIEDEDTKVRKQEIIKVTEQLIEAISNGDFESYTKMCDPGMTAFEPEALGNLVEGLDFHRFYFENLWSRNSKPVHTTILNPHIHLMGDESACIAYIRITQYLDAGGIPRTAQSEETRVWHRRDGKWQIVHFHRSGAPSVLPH
Oc1ccc([C@H]2Oc3cc(O)cc(O)c3C[C@@H]2O)cc1: -26%
NC(=O)C(c1ccccc1)(c1ccccc1)[C@@H]1CCN(CCc2ccc3c(c2)CCO3)C1: 15%
COc1c(C)c2c(c(O)c1C/C=C(\C)CCC(=O)OCCN1CCOCC1)C(=O)OC2: -20%
CCCCCCCCCCCCOC(=O)CS(=O)(=O)O: -5%
CCCCCCCCCCCCCCCCCCOCC(O)CO (stereo not shown): 18%
Cc1ncc(C[n+]2csc(CCOP(=O)(O)O)c2C)c(N)n1: 7%
CN1CCC(=C2c3ccccc3CC(=O)c3sccc32)CC1: 2%
COC(=O)Cc1c[nH]c2ccccc12: 15%
CC(C)=CCC[C@](C)(O[C@@H]1O[C@H](CO[C@@H]2OC[C@@H](O)[C@H](O)[C@H]2O)[C@@H](O)[C@H](O)[C@H]1O)[C@H]1CC[C@]2(C)[C@@H]1[C@H](O)C[C@@H]1[C@@]3(C)CC[C@H](O[C@@H]4O[C@H](CO)[C@@H](O)[C@H](O)[C@H]4O[C@@H]4O[C@H](CO)[C@@H](O)[C@H](O)[C@H]4O)C(C)(C)[C@@H]3CC[C@]12C: 9%
COC(=O)C1=CO[C@@H](O[C@@H]2O[C@H](CO)[C@@H](O)[C@H](O)[C@H]2O)[C@@H]2C(CO)=C[C@H](O)[C@H]12: -24%
O=c1ccc2cc(O)c(O[C@@H]3O[C@H](CO)[C@@H](O)[C@H](O)[C@H]3O)cc2o1: 32%
CC1(C)O[C@@H]2C[C@H]3[C@@H]4CCC5=CC(=O)C=C[C@]5(C)[C@H]4[C@@H](O)C[C@]3(C)[C@]2(C(=O)CO)O1: 12%

For quick reference, copied from above (sample 1):
NEK3 (Homo sapiens, UniProt P51956); binding: 85%
PRKCH (Homo sapiens, UniProt P24723); cell-free assay: 100%
Tyrosine-protein kinase JAK2, JH1 (JAK2, Homo sapiens, UniProt O60674); binding: 100%
